{"data": "Assay results of several laboratories", "RASA1 SH2 domains": "Ras GTPase-activating protein 1, SH2 domains (RASA1, Homo sapiens, UniProt P20936)", "note": "Lines come from different studies, so protocols differ. ± marks the error that the study gave.", "chain of UniProt P20936 (whole entry, looked up)": "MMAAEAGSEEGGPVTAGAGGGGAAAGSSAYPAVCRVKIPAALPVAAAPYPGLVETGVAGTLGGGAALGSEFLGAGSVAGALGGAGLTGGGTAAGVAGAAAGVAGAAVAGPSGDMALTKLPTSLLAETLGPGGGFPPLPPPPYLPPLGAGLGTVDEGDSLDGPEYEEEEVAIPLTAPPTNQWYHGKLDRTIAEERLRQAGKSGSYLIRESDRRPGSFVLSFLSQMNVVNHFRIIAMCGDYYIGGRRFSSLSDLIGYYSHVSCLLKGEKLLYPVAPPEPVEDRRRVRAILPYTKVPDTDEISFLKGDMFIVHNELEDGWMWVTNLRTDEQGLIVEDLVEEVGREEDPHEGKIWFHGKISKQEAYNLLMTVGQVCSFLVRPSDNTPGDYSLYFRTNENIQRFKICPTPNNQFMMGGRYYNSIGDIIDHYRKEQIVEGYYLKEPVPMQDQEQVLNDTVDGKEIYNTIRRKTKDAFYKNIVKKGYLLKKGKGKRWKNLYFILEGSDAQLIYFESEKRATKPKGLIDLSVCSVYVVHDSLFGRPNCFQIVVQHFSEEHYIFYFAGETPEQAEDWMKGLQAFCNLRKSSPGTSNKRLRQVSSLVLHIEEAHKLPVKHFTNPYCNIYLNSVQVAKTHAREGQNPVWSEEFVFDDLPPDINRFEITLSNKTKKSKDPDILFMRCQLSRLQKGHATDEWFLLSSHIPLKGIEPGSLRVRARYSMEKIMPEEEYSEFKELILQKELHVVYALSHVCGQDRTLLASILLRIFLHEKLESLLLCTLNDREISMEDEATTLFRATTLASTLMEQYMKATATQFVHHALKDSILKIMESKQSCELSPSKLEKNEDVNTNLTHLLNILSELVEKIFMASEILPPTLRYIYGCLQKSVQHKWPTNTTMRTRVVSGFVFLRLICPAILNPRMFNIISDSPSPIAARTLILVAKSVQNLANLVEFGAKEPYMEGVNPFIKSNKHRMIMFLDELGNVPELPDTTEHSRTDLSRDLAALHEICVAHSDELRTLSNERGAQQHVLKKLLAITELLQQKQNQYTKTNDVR", "chain of UniProt Q92743 (whole entry, looked up)": "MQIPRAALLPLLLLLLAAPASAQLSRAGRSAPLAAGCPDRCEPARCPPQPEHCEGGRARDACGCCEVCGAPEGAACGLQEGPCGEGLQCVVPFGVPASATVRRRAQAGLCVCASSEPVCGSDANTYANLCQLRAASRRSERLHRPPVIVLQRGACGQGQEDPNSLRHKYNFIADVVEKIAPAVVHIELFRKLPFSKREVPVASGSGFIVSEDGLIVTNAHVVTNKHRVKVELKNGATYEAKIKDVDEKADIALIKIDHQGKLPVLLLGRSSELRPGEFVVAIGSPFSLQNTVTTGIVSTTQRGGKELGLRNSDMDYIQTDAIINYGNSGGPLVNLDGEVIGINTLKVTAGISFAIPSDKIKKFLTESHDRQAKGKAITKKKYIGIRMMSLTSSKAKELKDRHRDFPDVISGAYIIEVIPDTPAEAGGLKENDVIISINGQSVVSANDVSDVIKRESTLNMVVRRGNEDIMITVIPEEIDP", "chain of UniProt P48546 (whole entry, looked up)": "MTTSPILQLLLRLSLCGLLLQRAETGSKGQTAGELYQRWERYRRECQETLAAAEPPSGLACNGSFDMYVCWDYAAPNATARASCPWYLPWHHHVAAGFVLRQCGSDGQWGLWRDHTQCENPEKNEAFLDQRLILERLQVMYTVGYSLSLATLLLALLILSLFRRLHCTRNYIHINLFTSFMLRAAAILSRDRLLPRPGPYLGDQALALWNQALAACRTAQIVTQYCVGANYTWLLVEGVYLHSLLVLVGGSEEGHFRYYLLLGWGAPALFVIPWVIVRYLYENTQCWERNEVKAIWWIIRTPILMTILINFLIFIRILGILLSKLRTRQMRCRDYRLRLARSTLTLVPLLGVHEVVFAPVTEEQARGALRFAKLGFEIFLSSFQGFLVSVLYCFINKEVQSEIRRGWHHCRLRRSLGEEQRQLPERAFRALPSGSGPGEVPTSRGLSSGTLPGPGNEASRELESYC", "chain of UniProt P51813 (whole entry, looked up)": "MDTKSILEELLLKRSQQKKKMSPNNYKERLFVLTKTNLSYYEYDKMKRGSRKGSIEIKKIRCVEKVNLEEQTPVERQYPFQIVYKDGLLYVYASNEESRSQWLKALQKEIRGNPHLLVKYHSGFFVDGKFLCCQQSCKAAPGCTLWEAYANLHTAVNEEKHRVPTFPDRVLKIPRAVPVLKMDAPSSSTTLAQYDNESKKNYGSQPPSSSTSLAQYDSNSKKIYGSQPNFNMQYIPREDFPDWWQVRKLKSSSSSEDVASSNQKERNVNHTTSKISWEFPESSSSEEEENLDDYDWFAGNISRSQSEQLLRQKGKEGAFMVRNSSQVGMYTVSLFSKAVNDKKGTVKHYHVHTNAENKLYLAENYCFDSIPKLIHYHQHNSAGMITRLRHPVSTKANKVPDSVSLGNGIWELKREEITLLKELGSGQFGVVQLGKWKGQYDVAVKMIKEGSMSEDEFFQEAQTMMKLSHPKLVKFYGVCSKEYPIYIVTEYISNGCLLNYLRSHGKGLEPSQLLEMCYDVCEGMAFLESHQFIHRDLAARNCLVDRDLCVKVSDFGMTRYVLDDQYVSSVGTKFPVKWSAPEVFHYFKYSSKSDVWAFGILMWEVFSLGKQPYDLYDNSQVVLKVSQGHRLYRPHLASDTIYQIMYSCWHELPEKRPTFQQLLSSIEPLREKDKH", "chain of UniProt P42224 (whole entry, looked up)": "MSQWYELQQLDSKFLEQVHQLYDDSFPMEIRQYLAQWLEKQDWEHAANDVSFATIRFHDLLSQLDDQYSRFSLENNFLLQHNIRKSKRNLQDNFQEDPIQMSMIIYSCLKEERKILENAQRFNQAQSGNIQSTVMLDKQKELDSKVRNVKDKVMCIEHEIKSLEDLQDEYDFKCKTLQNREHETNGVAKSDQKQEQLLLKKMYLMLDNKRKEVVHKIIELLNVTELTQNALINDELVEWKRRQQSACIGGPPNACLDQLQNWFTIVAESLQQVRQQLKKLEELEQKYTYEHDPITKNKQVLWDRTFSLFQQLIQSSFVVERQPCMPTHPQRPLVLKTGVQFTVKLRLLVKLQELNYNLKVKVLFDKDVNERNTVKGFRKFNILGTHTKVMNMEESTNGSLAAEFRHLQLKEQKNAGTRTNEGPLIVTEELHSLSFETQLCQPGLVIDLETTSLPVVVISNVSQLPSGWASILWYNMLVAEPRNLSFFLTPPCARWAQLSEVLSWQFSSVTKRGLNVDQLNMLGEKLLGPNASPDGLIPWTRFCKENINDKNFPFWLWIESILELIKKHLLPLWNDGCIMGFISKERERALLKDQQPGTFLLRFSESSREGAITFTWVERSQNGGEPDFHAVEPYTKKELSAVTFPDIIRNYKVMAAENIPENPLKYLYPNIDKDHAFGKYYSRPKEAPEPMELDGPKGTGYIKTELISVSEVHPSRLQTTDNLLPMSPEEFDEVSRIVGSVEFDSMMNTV", "chain of UniProt P00519 (whole entry, looked up)": "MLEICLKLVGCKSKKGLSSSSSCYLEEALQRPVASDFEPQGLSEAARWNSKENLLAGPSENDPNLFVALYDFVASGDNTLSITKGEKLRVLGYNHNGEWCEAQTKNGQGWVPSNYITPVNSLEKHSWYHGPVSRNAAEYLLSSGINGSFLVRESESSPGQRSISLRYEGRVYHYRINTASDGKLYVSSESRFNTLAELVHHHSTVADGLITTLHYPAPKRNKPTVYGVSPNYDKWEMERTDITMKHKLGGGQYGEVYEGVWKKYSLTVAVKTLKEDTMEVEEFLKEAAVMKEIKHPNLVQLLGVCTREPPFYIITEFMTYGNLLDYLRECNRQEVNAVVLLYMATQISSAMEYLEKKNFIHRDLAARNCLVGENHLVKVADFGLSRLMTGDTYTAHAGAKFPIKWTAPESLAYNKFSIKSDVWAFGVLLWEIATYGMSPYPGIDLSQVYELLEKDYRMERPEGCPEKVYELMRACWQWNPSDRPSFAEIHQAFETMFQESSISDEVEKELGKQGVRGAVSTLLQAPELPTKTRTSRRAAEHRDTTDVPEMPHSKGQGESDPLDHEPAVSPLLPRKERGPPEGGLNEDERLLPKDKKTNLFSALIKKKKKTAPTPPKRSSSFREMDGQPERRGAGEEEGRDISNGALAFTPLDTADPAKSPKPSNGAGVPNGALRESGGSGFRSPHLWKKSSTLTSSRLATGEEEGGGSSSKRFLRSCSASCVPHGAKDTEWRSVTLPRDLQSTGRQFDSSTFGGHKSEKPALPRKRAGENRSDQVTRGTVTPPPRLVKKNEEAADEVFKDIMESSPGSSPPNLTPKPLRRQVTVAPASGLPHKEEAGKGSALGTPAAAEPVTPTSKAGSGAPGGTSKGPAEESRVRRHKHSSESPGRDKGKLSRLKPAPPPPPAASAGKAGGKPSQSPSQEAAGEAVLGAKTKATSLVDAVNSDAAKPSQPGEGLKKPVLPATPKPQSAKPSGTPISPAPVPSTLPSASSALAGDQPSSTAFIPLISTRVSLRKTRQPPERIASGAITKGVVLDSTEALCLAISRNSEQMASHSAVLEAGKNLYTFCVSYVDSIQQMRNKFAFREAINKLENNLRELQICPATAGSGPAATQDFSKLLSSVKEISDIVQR", "chain of UniProt Q9NWS0 (51-180, unmodified, looked up)": "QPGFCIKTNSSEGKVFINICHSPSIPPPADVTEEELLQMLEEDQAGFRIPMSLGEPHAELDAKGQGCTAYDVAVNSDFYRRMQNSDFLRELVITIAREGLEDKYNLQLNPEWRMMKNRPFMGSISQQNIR"}
{"Structure (SMILES)": "Nc1ncnc2c1ncn2[C@@H]1O[C@H](C[C@@H](N)CC[C@H](N)C(=O)O)[C@@H](O)[C@H]1O", "target": "O-methyltransferase (Sorghum bicolor, UniProt A0A1B6PFV1, W279A)", "assay": "isothermal titration calorimetry", "conditions": "APO", "Kd": "0.88 µM"}
{"Structure (SMILES)": "CC[C@H](C)[C@@H]1NC(=O)[C@H](Cc2c[nH]cn2)NC(=O)[C@H](Cc2ccccc2)NC(=O)[C@H](Cc2ccc(O)cc2)NC(=O)[C@H](CCC(N)=O)NC(=O)[C@H](Cc2ccccc2)NC(=O)[C@@H](NC(=O)[C@H](CCSC)NC(C)=O)CSSC[C@@H](C(=O)NCC(=O)N[C@@H](CO)C(=O)NCC(=O)N[C@@H](CO)C(=O)N[C@@H](CC(=O)O)C(=O)N[C@@H](Cc2ccc(O)cc2)C(=O)N[C@@H](CCCCN)C(=O)N[C@@H](CC(=O)O)C(=O)N[C@@H](CC(=O)O)C(=O)N[C@@H](CC(=O)O)C(=O)N[C@@H](CC(=O)O)C(=O)N[C@@H](CCCCN)C(N)=O)NC(=O)[C@H](Cc2ccccc2)NC(=O)[C@@H]2CCCN2C(=O)[C@H](Cc2c[nH]c3ccccc23)NC(=O)[C@H](CC(C)C)NC1=O", "target": "Gastric inhibitory polypeptide receptor, extracellular domain (GIPR, Homo sapiens, UniProt P48546)", "assay": "binding, biolayer interferometry", "conditions": "crude peptide", "Kd": "0.0141 µM"}
{"Structure (SMILES)": "CC[C@H](C)[C@H](NC(=O)[C@H](CC(=O)O)NC(=O)[C@H](C)NC(=O)[C@H](Cc1ccc(O)cc1)NC(=O)[C@H](CCCCN)NC(=O)c1ccc2c(c1)C(=O)OC21c2ccc(N(C)C)cc2Oc2cc(N(C)C)ccc21)C(=O)N[C@@H](CCC(=O)O)C(=O)N[C@@H](CO)C(=O)N[C@@H](CO)C(=O)N[C@@H](CC(N)=O)C(=O)N[C@@H](Cc1ccc(OP(=O)(O)O)cc1)C(=O)N[C@@H](CCSC)C(=O)N[C@@H](C)C(=O)N1CCC[C@H]1C(=O)N[C@@H](Cc1ccc(O)cc1)C(=O)N[C@@H](CC(=O)O)C(=O)N[C@@H](CC(N)=O)C(=O)N[C@@H](Cc1ccc(O)cc1)C(=O)N[C@@H](CC(=O)O)C(=O)O", "target": "Signal transducer and activator of transcription 1-alpha/beta, SH2 domain (STAT1, Homo sapiens, UniProt P42224)", "assay": "binding", "Kd": "1.66 µM"}
{"Structure (SMILES)": "CC(C)C[C@H](NC(=O)[C@@H](N)CC(=O)O)C(=O)N[C@@H](CC(=O)O)C(=O)N[C@@H](COP(=O)(O)O)C(=O)N[C@@H](CC(=O)O)C(=O)N[C@@H](CC(=O)O)C(=O)N[C@@H](CCC(=O)O)C(=O)N[C@@H](Cc1ccc(O)cc1)C(=O)O", "target": "PIH1 domain-containing protein 1, residues 51-180 (PIH1D1, Homo sapiens, UniProt Q9NWS0, R168A)", "assay": "ITC", "conditions": "20 °C, mutant protein", "Kd": "> 112 µM"}
{"Structure (SMILES)": "CC[C@H](CO)Nc1nc(NCc2ccc(-c3ccccn3)cc2)c2ncn(C(C)C)c2n1", "target": "CABLES1, human", "assay": "affinity chromatography competition", "system": "SH-SY5Y cell extract", "Kd": "3.45 µM"}
{"Structure (SMILES)": "CC[C@H](C)[C@H](NC(=O)c1ccc2c(c1)C(=O)OC21c2ccc(N(C)C)cc2Oc2cc(N(C)C)ccc21)C(=O)N[C@@H](CCC(=O)O)C(=O)N[C@@H](CO)C(=O)N[C@@H](CO)C(=O)N[C@@H](CC(N)=O)C(=O)N[C@@H](Cc1ccc(O)cc1)C(=O)N[C@@H](CCSC)C(=O)N[C@@H](C)C(=O)N1CCC[C@H]1C(=O)N[C@@H](Cc1ccc(OP(=O)(O)O)cc1)C(=O)N[C@@H](CC(=O)O)C(=O)N[C@@H](CC(N)=O)C(=O)N[C@@H](Cc1ccc(O)cc1)C(=O)N[C@H](C(=O)N1CCC[C@H]1C(=O)N[C@@H](CO)C(=O)N[C@@H](C)C(=O)N[C@@H](CC(=O)O)C(=O)O)C(C)C", "target": "RASA1 SH2 domains", "assay": "binding", "Kd": "0.042 µM"}
{"Structure (SMILES)": "CN1C2CCCC1CC(NC(=O)c1nn(C)c3ccccc13)C2 (stereo not drawn)", "target": "Soluble acetylcholine receptor (Aplysia californica, UniProt Q8WSF8, D181A/K160T/Q74R/S111E/V159L)", "assay": "homologous radioligand competition", "Kd": "0.618 ± 0.034 µM"}
{"Structure (SMILES)": "CC[C@H](C)[C@H](NC(=O)[C@H](Cc1ccc(OP(=O)(O)O)cc1)NC(=O)[C@H](CCC(=O)O)NC(=O)[C@@H]1CCCN1C(=O)[C@@H](NC(=O)[C@@H]1CCCN1C(=O)[C@H](CC(C)C)NC(=O)[C@H](Cc1ccccc1)NC(=O)[C@@H](NC(=O)[C@H](CC(=O)O)NC(=O)[C@H](CC(=O)O)NC(=O)c1ccc2c(c1)C(=O)OC21c2ccc(N(C)C)cc2Oc2cc(N(C)C)ccc21)[C@@H](C)O)C(C)C)C(=O)N[C@@H](CC(N)=O)C(=O)N[C@@H](CCC(N)=O)C(=O)N[C@@H](CO)C(=O)N[C@H](C(=O)N1CCC[C@H]1C(=O)N[C@@H](CCCCN)C(=O)N[C@@H](CC(=O)O)C(=O)O)C(C)C", "target": "RASA1 SH2 domains", "assay": "binding", "Kd": "0.18 µM"}
{"Structure (SMILES)": "CC(C)C[C@H](NC(=O)[C@H](CCC(=O)O)NC(=O)[C@H](Cc1c[nH]cn1)NC(=S)Nc1ccc2c(c1)C(=O)OC21c2ccc(O)cc2Oc2cc(O)ccc21)C(=O)N[C@@H](C)C(=O)N1CCC[C@H]1C(=O)N[C@H](C(=O)N[C@@H](CO)C(=O)N[C@H](C(=O)N[C@@H](Cc1c[nH]cn1)C(=O)O)C(C)C)C(C)C", "target": "Lon protease, N-terminal domain (1-206) (lon, Caulobacter vibrioides, UniProt P0CAW0)", "assay": "binding, fluorescence polarisation", "conditions": "added: FITC-labelled degron peptide", "Kd": "101 µM"}
{"Structure (SMILES)": "CC[C@H](C)[C@H](NC(=O)[C@H](Cc1c[nH]c2ccccc12)NC(=O)[C@H](C)NC(=O)[C@H](C)NC(=O)[C@H](Cc1ccc(O)cc1)NC(=O)[C@@H](N)CO)C(=O)N[C@@H](CC(=O)O)C(=O)N[C@H](C(=O)N[C@@H](CCC(=O)O)C(=O)N[C@@H](CO)C(=O)N[C@@H](CC(C)C)C(=O)O)C(C)C", "target": "Serine protease HTRA1, PDZ domain (Homo sapiens, UniProt Q92743)", "assay": "isothermal titration calorimetry", "system": "isolated PDZ domain", "conditions": "pH 8.0", "Kd": "39.2 µM"}
{"Structure (SMILES)": "CC[C@H](C)[C@H](NC(=O)[C@H](Cc1ccc(OP(=O)(O)O)cc1)NC(=O)[C@H](CCC(=O)O)NC(=O)[C@H](Cc1c[nH]cn1)NC(=O)CNC(=O)[C@H](CC(=O)O)NC(=O)[C@H](CO)NC(=O)[C@H](CO)NC(=O)[C@@H](NC(=O)[C@H](CO)NC(=O)[C@H](CCC(=O)O)NC(=O)c1ccc2c(c1)C(=O)OC21c2ccc(N(C)C)cc2Oc2cc(N(C)C)ccc21)C(C)C)C(=O)N[C@@H](Cc1ccc(O)cc1)C(=O)N[C@H](C(=O)N[C@@H](CC(=O)O)C(=O)N1CCC[C@H]1C(=O)N[C@@H](CCSC)C(=O)N[C@@H](CCC(N)=O)C(=O)N[C@@H](CC(=O)O)C(=O)O)C(C)C", "target": "RASA1 SH2 domains", "assay": "binding", "Kd": "1.63 µM"}
{"Structure (SMILES)": "NCCc1c[nH]cn1", "target": "commercial monoclonal antibody", "scale": "lower = stronger binding", "Kd": "0.0003 ± 0.0001 µM"}
{"Structure (SMILES)": "CC(C)C[C@H](NC(=O)[C@@H](NC(=O)[C@H](CO)NC(=O)[C@H](CO)NC(=O)[C@@H](NC(=O)[C@H](CC(=O)O)NC(=O)[C@H](CC(C)C)NC(=O)[C@@H]1CCCN1C(=O)[C@H](CO)NC(=O)c1ccc2c(c1)C(=O)OC21c2ccc(N(C)C)cc2Oc2cc(N(C)C)ccc21)[C@@H](C)O)C(C)C)C(=O)N[C@@H](Cc1ccc(OP(=O)(O)O)cc1)C(=O)N[C@H](C(=O)N[C@@H](C)C(=O)N[C@H](C(=O)N[C@@H](CCC(N)=O)C(=O)N1CCC[C@H]1C(=O)N[C@@H](CC(N)=O)C(=O)N[C@@H](CCC(=O)O)C(=O)N[C@@H](CC(=O)O)C(=O)O)C(C)C)[C@@H](C)O", "target": "Cytoplasmic tyrosine-protein kinase BMX, SH2 domain (BMX, Homo sapiens, UniProt P51813)", "assay": "binding", "Kd": "0.744 µM"}
{"Structure (SMILES)": "CC[C@H](C)[C@H](NC(=O)[C@H](CCC(N)=O)NC(=O)[C@@H](NC(=O)[C@@H]1CCCN1C(=O)[C@@H](NC(=O)[C@H](CO)NC(=O)[C@H](Cc1ccccc1)NC(=O)[C@@H]1CCCN1C(=O)[C@H](CCC(N)=O)NC(=O)[C@@H](N)CCSC)[C@@H](C)CC)C(C)C)C(=O)N[C@H](C(=O)N[C@@H](CC(C)C)C(=O)N[C@@H](CCC(N)=O)C(=O)NCC(=O)N[C@@H](CO)C(=O)N[C@@H](CCCNC(=N)N)C(=O)N[C@@H](CCCNC(=N)N)C(=O)N[C@@H](CCCNC(=N)N)C(=O)N[C@@H](CCC(N)=O)C(=O)NCC(=O)N[C@@H](CCCNC(=N)N)C(N)=O)[C@@H](C)O", "target": "Kcnma1 (Mus musculus, UniProt Q08460)", "assay": "ion current, blocker, inside-out patch clamp", "system": "Xenopus oocytes", "conditions": "range over 4 µM, pH 7.0, 22–24 °C, at 0 mV, added: 10 µM cytosolic Ca2+", "Kd": "0.6 µM"}
{"Structure (SMILES)": "O=C(O)CCCN1CC=C(c2ccccc2)CC1", "target": "Ubiquitin carboxyl-terminal hydrolase 16, ZnF-UBD domain (USP16, Homo sapiens, UniProt Q9Y5T5)", "Kd": "> 1000 µM"}
{"Structure (SMILES)": "CSCC[C@H](NC(=O)CNC(=O)[C@H](Cc1ccccc1)NC(=O)[C@H](CC(=O)O)NC(=O)CNC(=O)c1ccc2c(c1)C(=O)OC21c2ccc(N(C)C)cc2Oc2cc(N(C)C)ccc21)C(=O)N[C@@H](CO)C(=O)N[C@@H](CCCNC(=N)N)C(=O)N[C@@H](CC(=O)O)C(=O)N[C@H](C(=O)N[C@@H](Cc1ccc(OP(=O)(O)O)cc1)C(=O)N[C@@H](CO)C(=O)N[C@H](C(=O)N[C@@H](CC(=O)O)C(=O)N[C@@H](Cc1ccc(O)cc1)C(=O)N[C@@H](Cc1ccc(O)cc1)C(=O)N[C@@H](CCCNC(=N)N)C(=O)N[C@H](C(=O)N[C@@H](CC(=O)O)C(=O)O)C(C)C)[C@@H](C)O)C(C)C", "target": "Tyrosine-protein kinase ABL1, SH2 domain (ABL1, Homo sapiens, UniProt P00519)", "assay": "binding", "Kd": "0.841 µM"}
{"Structure (SMILES)": "CC[C@H](C)CCCCC(=O)N[C@@H](CCN)C(=O)N[C@H](C(=O)N[C@@H](CCN)C(=O)N[C@H]1CCNC(=O)[C@H]([C@@H](C)O)NC(=O)[C@H](CCN)NC(=O)[C@H](CCN)NC(=O)[C@H](CC(C)C)NC(=O)[C@@H](CC(C)C)NC(=O)[C@H](CCN)NC1=O)[C@@H](C)O", "target": "AcrB Klebsiella pneumoniae ATCC 43816", "assay": "isothermal titration calorimetry", "conditions": "pH 7.5, 25 °C, 0.03% DDM", "Kd": "0.32 µM"}
{"Structure (SMILES)": "O=C1c2ccccc2C(=O)c2ccccc21", "target": "Reaction center protein M chain, QA site (pufM, Cereibacter sphaeroides, UniProt P0C0Y9)", "assay": "QA site binding", "Kd": "< 0.2 µM"}
{"note": "Some of these lines once more:"}
{"Structure (SMILES)": "CC(C)C[C@H](NC(=O)[C@@H](N)CC(=O)O)C(=O)N[C@@H](CC(=O)O)C(=O)N[C@@H](COP(=O)(O)O)C(=O)N[C@@H](CC(=O)O)C(=O)N[C@@H](CC(=O)O)C(=O)N[C@@H](CCC(=O)O)C(=O)N[C@@H](Cc1ccc(O)cc1)C(=O)O", "target": "PIH1 domain-containing protein 1, residues 51-180 (PIH1D1, Homo sapiens, UniProt Q9NWS0, R168A)", "assay": "ITC", "conditions": "20 °C, mutant protein", "Kd": "> 112 µM"}
{"Structure (SMILES)": "CSCC[C@H](NC(=O)CNC(=O)[C@H](Cc1ccccc1)NC(=O)[C@H](CC(=O)O)NC(=O)CNC(=O)c1ccc2c(c1)C(=O)OC21c2ccc(N(C)C)cc2Oc2cc(N(C)C)ccc21)C(=O)N[C@@H](CO)C(=O)N[C@@H](CCCNC(=N)N)C(=O)N[C@@H](CC(=O)O)C(=O)N[C@H](C(=O)N[C@@H](Cc1ccc(OP(=O)(O)O)cc1)C(=O)N[C@@H](CO)C(=O)N[C@H](C(=O)N[C@@H](CC(=O)O)C(=O)N[C@@H](Cc1ccc(O)cc1)C(=O)N[C@@H](Cc1ccc(O)cc1)C(=O)N[C@@H](CCCNC(=N)N)C(=O)N[C@H](C(=O)N[C@@H](CC(=O)O)C(=O)O)C(C)C)[C@@H](C)O)C(C)C", "target": "Tyrosine-protein kinase ABL1, SH2 domain (ABL1, Homo sapiens, UniProt P00519)", "assay": "binding", "Kd": "0.841 µM"}
{"Structure (SMILES)": "CC[C@H](C)[C@H](NC(=O)[C@H](Cc1c[nH]c2ccccc12)NC(=O)[C@H](C)NC(=O)[C@H](C)NC(=O)[C@H](Cc1ccc(O)cc1)NC(=O)[C@@H](N)CO)C(=O)N[C@@H](CC(=O)O)C(=O)N[C@H](C(=O)N[C@@H](CCC(=O)O)C(=O)N[C@@H](CO)C(=O)N[C@@H](CC(C)C)C(=O)O)C(C)C", "target": "Serine protease HTRA1, PDZ domain (Homo sapiens, UniProt Q92743)", "assay": "isothermal titration calorimetry", "system": "isolated PDZ domain", "conditions": "pH 8.0", "Kd": "39.2 µM"}
